Measured values of several laboratories.
Protocols differ between the studies behind these lines. “And” joins repeats or separate records; there may be more than shown. ± gives the spread as reported.

Under “remaining main peak”, `CC[C@H](C)[C@@H](C(=O)N[C@@H](CC(C)C)C(=O)N[C@@H](CO)C(=O)N[C@@H](CO)C(=O)N[C@H](C(=O)N[C@@H](CCC(=O)O)C(=O)N[C@H](C(=O)NCC(=O)N[C@@H](CO)C(=O)N[C@@H](CC(N)=O)C(=O)N[C@H](C(=O)N1CCC[C@H]1C(N)=O)[C@@H](C)O)C(C)C)[C@@H](C)O)N(C)C(=O)[C@H](C)NC(=O)CN(C)C(=O)[C@H](Cc1ccccc1)NC(=O)[C@H](CO)NC(=O)[C@H](CO)NC(=O)[C@H](CCCNC(=N)N)NC(=O)[C@H](Cc1c[nH]cn1)NC(=O)[C@H](CC(C)C)NC(=O)[C@H](Cc1ccccc1)NC(=O)[C@H](Cc1c[nH]cn1)NC(=O)[C@H](C)NC(=O)[C@H](CC(C)C)NC(=O)[C@H](CCCNC(=N)N)NC(=O)[C@H](CCC(=O)O)NC(=O)[C@@H](NC(=O)[C@H](C)NC(=O)[C@@H]1CSSC[C@H](NC(=O)[C@H](CCCNC(=N)N)NC(=O)CC[C@H](NC(=O)CCCCCCCCCCCCCCCCCCC(=O)O)C(=O)O)C(=O)NCC(=O)N[C@@H]([C@@H](C)O)C(=O)N[C@@H](C)C(=O)N[C@@H]([C@@H](C)O)C(=O)N1)[C@@H](C)O` is recorded as 76 area % (RP-HPLC; water; 7 days, pH 7.5, 40 °C).
`CC[C@H](C)[C@H](NC(=O)[C@H](Cc1ccccc1)NC(=O)[C@H](CCC(=O)O)NC(=O)[C@H](CCCCN)NC(=O)[C@H](C)NC(=O)[C@H](C)NC(=O)[C@H](CCC(N)=O)NC(=O)CNC(=O)[C@H](CCC(=O)O)NC(=O)[C@H](CC(C)C)NC(=O)[C@H](Cc1ccc(O)cc1)NC(=O)[C@H](CO)NC(=O)[C@H](CO)NC(=O)[C@@H](NC(=O)[C@H](CC(=O)O)NC(=O)[C@H](CO)NC(=O)[C@@H](NC(=O)[C@H](Cc1ccccc1)NC(=O)[C@@H](NC(=O)CNC(=O)[C@H](CCC(=O)O)NC(=O)[C@H](C)NC(=O)[C@@H](N)Cc1c[nH]cn1)[C@@H](C)O)[C@@H](C)O)C(C)C)C(=O)N[C@@H](C)C(=O)N[C@@H](Cc1c[nH]c2ccccc12)C(=O)N[C@@H](CC(C)C)C(=O)N[C@H](C(=O)N[C@@H](CCCNC(=N)N)C(=O)NCC(=O)N[C@@H](CCCNC(=N)N)C(=O)NCC(=O)O)C(C)C` has a remaining peptide of under 5% (HPLC-UV; Tris-HCl buffer; 0.1 mmol/l, 4 h, pH 7.4, 37 °C).
Under “remaining main peak”, `CC[C@H](C)[C@@H](C(=O)N[C@@H](CC(C)C)C(=O)N[C@@H](CO)C(=O)N[C@@H](CO)C(=O)N[C@H](C(=O)N[C@@H](CCC(=O)O)C(=O)N[C@H](C(=O)NCC(=O)N[C@@H](CO)C(=O)N[C@@H](CC(N)=O)C(=O)N[C@H](C(=O)N1C[C@H](O)C[C@H]1C(N)=O)[C@@H](C)O)C(C)C)[C@@H](C)O)N(C)C(=O)[C@H](C)NC(=O)CN(C)C(=O)[C@H](Cc1ccccc1)NC(=O)[C@H](CO)NC(=O)[C@H](CO)NC(=O)[C@H](CCCNC(=N)N)NC(=O)[C@H](CCC(N)=O)NC(=O)[C@H](CC(C)C)NC(=O)[C@H](Cc1ccccc1)NC(=O)[C@H](CCCC(=O)O)NC(=O)[C@H](C)NC(=O)[C@H](CC(C)C)NC(=O)[C@H](CCCNC(=N)N)NC(=O)[C@H](CCC(=O)O)NC(=O)[C@@H](NC(=O)[C@H](C)NC(=O)[C@@H]1CSSC[C@H](NC(=O)[C@H](CCCNC(=N)N)NC(=O)CC[C@H](NC(=O)CCCCCCCCCCCCCCCCCCC(=O)O)C(=O)O)C(=O)NCC(=O)N[C@@H]([C@@H](C)O)C(=O)N[C@@H](C)C(=O)N[C@@H]([C@@H](C)O)C(=O)N1)[C@@H](C)O` is recorded as 97 area % (RP-HPLC; water; 7 days, pH 6.0, 40 °C).
With `N=C(N)NCCC[C@@H]1NC(=O)[C@H](CCCNC(=N)N)NC(=O)[C@@H](C(c2ccccc2)c2ccccc2)NC(=O)[C@H](Cc2c[nH]c3ccccc23)NC(=O)[C@@H](C(c2ccccc2)c2ccccc2)NC(=O)[C@@H](CCCNC(=N)N)NC(=O)[C@@H](CCCNC(=N)N)NC1=O` the remaining peptide was 31.2% (LC-MS; human plasma; 24 h).
`Cc1ccc(C(C)C)cc1.O=C(N=P12CN3CN(CN(C3)C1)C2)c1[c-]cccc1.[Cl-].[Ru+2]`: “remaining intact compound” 27% (DMSO-d6; 2 weeks).
`CC[C@H](C)[C@@H](C(=O)N[C@@H](CC(C)C)C(=O)N[C@@H](CO)C(=O)N[C@@H](CO)C(=O)N[C@H](C(=O)N[C@@H](CCC(=O)O)C(=O)N[C@H](C(=O)NCC(=O)N[C@@H](CO)C(=O)N[C@@H](CC(N)=O)C(=O)N[C@H](C(=O)N1C[C@H](O)C[C@H]1C(N)=O)[C@@H](C)O)C(C)C)[C@@H](C)O)N(C)C(=O)[C@H](C)NC(=O)CN(C)C(=O)[C@H](Cc1ccccc1)NC(=O)[C@H](CO)NC(=O)[C@H](CO)NC(=O)[C@H](CCCNC(=N)N)NC(=O)[C@H](CCC(N)=O)NC(=O)[C@H](CC(C)C)NC(=O)[C@H](Cc1ccccc1)NC(=O)[C@H](CCCC(=O)O)NC(=O)[C@H](C)NC(=O)[C@H](CC(C)C)NC(=O)[C@H](CCCNC(=N)N)NC(=O)[C@H](CCC(=O)O)NC(=O)[C@@H](NC(=O)[C@H](C)NC(=O)[C@@H]1CCCCNC(=O)C[C@H](NC(=O)[C@H](CCCNC(=N)N)NC(=O)CC[C@H](NC(=O)CCCCCCCCCCCCCCCCCCC(=O)O)C(=O)O)C(=O)NCC(=O)N[C@@H]([C@@H](C)O)C(=O)N[C@@H](C)C(=O)N[C@@H]([C@@H](C)O)C(=O)N1)[C@@H](C)O`: “remaining main peak” 97 area % (RP-HPLC; water; 7 days, pH 7.5, 40 °C).
`CC(C)(C)[Si](C)(C)Oc1ccc(COC(=O)NNc2ccccc2)cc1` gave a remaining fraction of 0.97 and 0.95 and 0.99 (PBS; 2.5 h, 37 °C; relative to: initial amount).
For `Cc1nc(N)nc2c1C(=O)N[C@@H](c1ccc(F)cc1-c1cccc(OCC[18F])n1)C2`, “remaining intact compound” read 98% (HPLC; mouse serum; 100 µM, up to 4 h, 37 °C).
Under “remaining main peak”, `CC[C@H](C)[C@@H](C(=O)N[C@@H](CC(C)C)C(=O)N[C@@H](CO)C(=O)N[C@@H](CO)C(=O)N[C@H](C(=O)N[C@@H](CCC(=O)O)C(=O)N[C@H](C(=O)NCC(=O)N[C@@H](CO)C(=O)N[C@@H](CO)C(=O)N[C@H](C(=O)N1CCC[C@H]1C(N)=O)[C@@H](C)O)C(C)C)[C@@H](C)O)N(C)C(=O)[C@H](C)NC(=O)CN(C)C(=O)[C@H](Cc1ccccc1)NC(=O)[C@H](CO)NC(=O)[C@H](CO)NC(=O)[C@H](CCCNC(=N)N)NC(=O)[C@H](CCC(N)=O)NC(=O)[C@H](CC(C)C)NC(=O)[C@H](Cc1ccccc1)NC(=O)[C@H](Cc1c[nH]cn1)NC(=O)[C@H](C)NC(=O)[C@H](CC(C)C)NC(=O)[C@H](CCCNC(=N)N)NC(=O)[C@H](CCC(=O)O)NC(=O)[C@@H](NC(=O)[C@H](C)NC(=O)[C@@H]1CSSC[C@H](NC(=O)[C@H](CCCNC(=N)N)NC(=O)CC[C@H](NC(=O)CCCCCCCCCCCCCCCCCCC(=O)O)C(=O)O)C(=O)NCC(=O)N[C@@H]([C@@H](C)O)C(=O)N[C@@H](C)C(=O)N[C@@H]([C@@H](C)O)C(=O)N1)[C@@H](C)O` is recorded as 71 area % (RP-HPLC; water; 7 days, pH 7.5, 40 °C).
With `CSCC[C@@H](N)C(=O)N[C@@H](CC(C)C)C(=O)N[C@@H](CCCNC(=N)N)C(=O)N[C@@H](Cc1c[nH]c2ccccc12)C(=O)N[C@@H](CO)C(=O)N[C@@H](CCCNC(=N)N)C(=O)N[C@@H](CCCCN)C(=O)N[C@@H](CCSC)C(=O)N1CCC[C@H]1C(=O)N[C@@H](CS)C(=O)N[C@H](C(=O)N[C@@H](CO)C(=O)O)C(C)C` the remaining activity was 34 ± 11% (12G5 competition, SUP-T1 cells; human plasma; 20 µM, 8 h, 37 °C).
`C=CC(=O)Nc1cc(Nc2nccc(-c3cn(C)c4ccccc34)n2)c(OC)cc1N(C)CCNC` gave a remaining amount of 99.2% (storage stability; human plasma; 270 ng/mL, 5 h, -80 °C, HQC level).
`C[C@](C(=O)NC1CCC(F)(F)CC1)(c1cncnc1)N(C(=O)[C@H](F)Cl)c1ccc(OC(F)(F)F)cc1` gave a remaining compound of 46.3% (mouse liver microsomes; concentration not given, 0.25 h, pH 7.4).
For `Cc1ccc(C(C)C)cc1.[Cl-].[Cl-].[Fe+2].[Ru+2].c1cc[cH-]c1.c1ccc(P(=NCc2ccccn2)(c2ccccc2)[c-]2cccc2)cc1`, “remaining intact compound” read over 99% (DMSO-d6; 1 month).
With `O=C(NC1CCC(F)(F)CC1)C(c1cncnc1)N(C(=O)C(F)Cl)c1ccc(OC(F)(F)F)cc1` (stereo not drawn) the remaining compound was 95.9% (human liver microsomes; concentration not given, 0.75 h, pH 7.4).
`CN(Cc1cc(C2CC2)on1)C(=O)c1cccc(-c2ccc(F)cc2)c1` has a remaining compound of 89.2% (human liver microsomes; 2 µM, 30 min, pH 7.5, with: 1-aminobenzotriazole 500 µM, preincubated 30 min).
